# Published values pooled from the literature.
# Numbered parts are unrelated; each lists some results of a single study. Substitutions count along the parent as printed.

# Series 1 — technique: protein binding microarray; molecule type: double-stranded DNA, one strand shown; matrix: in vitro; concentration: not given; reference: not given; reading: higher = stronger binding
# Target: Histone acetyltransferase KAT6A, both winged helices, GST fusion (KAT6A, Homo sapiens, UniProt Q92794, residues 1-181)
# Setting: 8-mer, flanks averaged, mean of 2 arrays, mostly near background
# Residues (chain): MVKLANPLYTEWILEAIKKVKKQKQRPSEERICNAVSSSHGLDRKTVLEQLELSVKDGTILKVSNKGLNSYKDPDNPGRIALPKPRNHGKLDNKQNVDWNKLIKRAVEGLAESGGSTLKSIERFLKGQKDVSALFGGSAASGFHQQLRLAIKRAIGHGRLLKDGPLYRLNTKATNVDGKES
Oligonucleotide,E-score
AGGGCCTC,-0.189
GCGGTTCC,0.198
CGACTAGA,-0.109
ATGAACAA,-0.0455
AGGCGTAG,-0.0698
GCTGGTTA,-0.108
ACTCGCGG,0.275
CCCCTCCC,-0.0592
ACCGGTCT,0.0451
AACCCCCT,-0.296
ACTAAACT,-0.14
GCTAGTAA,0.026
CCAAAATA,-0.155
ACGCTCAT,0.0516
GACATACC,0.0222
ACTAAAAG,-0.0766
CCACAAGG,-0.0466

# Series 2 — technique: universal PBM; molecule type: double-stranded DNA, one strand shown; matrix: in vitro; concentration: 600 nM; reading: higher = stronger binding
# Target: Sal-like protein 4, full length isoform A (SALL4, Homo sapiens, UniProt Q9UJQ4, residues 1-1053)
# Chain of UniProt Q9UJQ4 (whole entry, looked up): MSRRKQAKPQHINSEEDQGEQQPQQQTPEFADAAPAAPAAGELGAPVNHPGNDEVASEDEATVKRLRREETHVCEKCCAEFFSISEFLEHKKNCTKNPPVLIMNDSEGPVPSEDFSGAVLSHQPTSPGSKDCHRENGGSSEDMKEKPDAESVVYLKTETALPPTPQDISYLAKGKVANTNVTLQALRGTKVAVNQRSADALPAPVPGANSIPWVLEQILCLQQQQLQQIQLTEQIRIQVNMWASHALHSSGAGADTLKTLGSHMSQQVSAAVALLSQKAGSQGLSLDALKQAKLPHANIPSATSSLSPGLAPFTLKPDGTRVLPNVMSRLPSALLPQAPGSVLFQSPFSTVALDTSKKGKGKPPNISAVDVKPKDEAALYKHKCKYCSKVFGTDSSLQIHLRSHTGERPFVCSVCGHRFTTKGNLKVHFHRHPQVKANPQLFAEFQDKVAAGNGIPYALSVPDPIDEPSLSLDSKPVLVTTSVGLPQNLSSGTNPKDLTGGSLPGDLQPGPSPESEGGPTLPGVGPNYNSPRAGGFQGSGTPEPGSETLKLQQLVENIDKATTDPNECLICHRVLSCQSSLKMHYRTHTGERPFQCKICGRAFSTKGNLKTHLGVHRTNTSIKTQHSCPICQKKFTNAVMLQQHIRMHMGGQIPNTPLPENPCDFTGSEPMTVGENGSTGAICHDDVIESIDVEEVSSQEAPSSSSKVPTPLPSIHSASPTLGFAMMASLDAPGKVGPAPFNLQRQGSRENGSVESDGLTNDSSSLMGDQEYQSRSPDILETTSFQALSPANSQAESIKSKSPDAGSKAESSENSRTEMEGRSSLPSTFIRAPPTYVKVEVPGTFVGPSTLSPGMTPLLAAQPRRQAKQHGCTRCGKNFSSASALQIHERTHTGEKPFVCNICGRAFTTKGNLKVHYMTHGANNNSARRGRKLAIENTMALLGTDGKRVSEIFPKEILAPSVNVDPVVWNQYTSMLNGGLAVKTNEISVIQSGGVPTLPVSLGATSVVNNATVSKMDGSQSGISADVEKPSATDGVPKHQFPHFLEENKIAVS
# Setting: 8-mer, flanks averaged, mean of replicates
Oligonucleotide,E-score
CTGACGAC,-0.1
AAGGGCGT,-0.186
CGAGGACC,-0.221
GAGGATCA,-0.0459
GCACGCGA,-0.21
TACGTCAA,0.138
ATCTCTGC,0.0276
CGTGCTCC,-0.28
CGCTGTGA,-0.203
ACGAGTTC,-0.0225
CCTGGGTC,-0.311
ATGTTCGG,0.0153
ACAAGGCC,-0.214
GTCCAAAC,-0.14
CCCTAGAC,-0.204
GCTGTACC,-0.205
ATCCTTAA,0.0688
ACCACAAG,-0.0297
AACGGTCG,-0.0373
CATTAATA,0.394
TCCTCCGA,-0.229
CGGTTCCC,-0.315
GATGACAC,-0.118
GATCTCCC,-0.259
CCCGGTCG,-0.434

# Series 3 — target: NFE2, bZIP domain (human); technique: DHFR protein complementation; matrix: yeast; reference: wild-type JUN-FOS pair; reading: higher = stronger binding
# Setting: single substitutions, most at no-binding floor
# Starting sequence: JUN, bZIP domain (human); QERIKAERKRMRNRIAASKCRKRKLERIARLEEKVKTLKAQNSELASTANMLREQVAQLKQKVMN; partner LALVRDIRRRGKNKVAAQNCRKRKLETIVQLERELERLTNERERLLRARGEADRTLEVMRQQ
Change,binding fitness [natural log]
E32Q,-1.47
A49D,-1.44
A40H,-1.41
N42E,-1.44
M51N,-1.52
T48W,-1.43
Q41E,-1.48
E54T,-1.27
A40K,-1.36
R30H,-1.38
K39A,-1.3
M51S,-1.36
A46W,-1.44
K39S,-1.48
E32P,-1.45
A40S,-1.37
I28Q,-1.22
T37N,-1.42
K34T,-1.37
A40G,-1.45
N42P,-1.53
V56L,-1.39
T48A,-1.29
S43V,-1.48

# Series 4 — technique: DHFR PCA, deep sequencing; matrix: yeast; together with: (+)-ABA 2500 µM; reference: wild-type fitted maximum; reading: higher = stronger binding
# Target: ABI1, truncated, D143A, DHFR fusion (Arabidopsis thaliana)
# Setting: methotrexate growth selection, single substitutions
# Starting sequence: PYL1, truncated, DHFR fusion (Arabidopsis thaliana); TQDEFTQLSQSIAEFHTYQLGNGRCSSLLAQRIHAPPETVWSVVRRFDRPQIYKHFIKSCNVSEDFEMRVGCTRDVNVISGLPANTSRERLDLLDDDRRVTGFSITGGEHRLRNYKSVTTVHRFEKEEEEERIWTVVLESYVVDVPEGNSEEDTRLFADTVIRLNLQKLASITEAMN
Change,relative binding score
D75G,93.7%
F157Y,95.9%
S150I,85.1%
F56N,43.6%
S150Y,82.8%
K168G,95.1%
D97Y,92%
L20A,98.6%
R155I,96%
K116H,96.4%
V136I,97.6%
A175C,96.4%
T160C,95.4%
I57L,96.8%
D48L,36.5%
N61Y,98.2%
E109G,97.7%
D159T,86.6%
V121Y,2.45%
D95R,88.8%

# Series 5 — target: CCND1, cyclin fold, Cln2 fusion (human); technique: yeast growth competition, sequencing; matrix: yeast; setting: strong parent motif; reference: not given; reading: higher = stronger binding
# Starting sequence: SCAPER docking peptide (human); SNARRSLNFGGST
Change,normalised enrichment score
SNARDSLNFGGST [R5D],0.486
FNARRSLNFGGST [S1F],1.23
SNARRSLNFIGST [G10I],0.463
SNARRSLNFNGST [G10N],0.263
SNARRSLNGGGST [F9G],-0.257
SNARRSLSFGGST [N8S],1.74
SNARRSLNFGKST [G11K],0.863
SNARRHLNFGGST [S6H],1.64
SFARRSLNFGGST [N2F],1.39
SNARRSLNFLGST [G10L],0.377
SNARGSLNFGGST [R5G],0.361
VNARRSLNFGGST [S1V],0.624
KNARRSLNFGGST [S1K],0.469
SNARRSLNFGGTT [S12T],0.951
SNARRSLNFGGSR [T13R],0.698
SNDRRSLNFGGST [A3D],0.0477
SNAPRSLNFGGST [R4P],0.186
HNARRSLNFGGST [S1H],0.153
SNARRSLNFGGHT [S12H],1.45
SNAWRSLNFGGST [R4W],0.386
SNARRSLNFGVST [G11V],1.41
SNARRELNFGGST [S6E],1.59
SNARRSLNFGIST [G11I],0.943
